Measured values pooled from the literature.
Each line is one published result; not all experiments were run side by side. “And” joins repeats or separate records; there may be more than shown. ± gives the spread as reported.
CYP3A5: Cytochrome P450 3A5 (CYP3A5, Homo sapiens, UniProt P20815)
Sequence of UniProt P20815 (whole entry, looked up): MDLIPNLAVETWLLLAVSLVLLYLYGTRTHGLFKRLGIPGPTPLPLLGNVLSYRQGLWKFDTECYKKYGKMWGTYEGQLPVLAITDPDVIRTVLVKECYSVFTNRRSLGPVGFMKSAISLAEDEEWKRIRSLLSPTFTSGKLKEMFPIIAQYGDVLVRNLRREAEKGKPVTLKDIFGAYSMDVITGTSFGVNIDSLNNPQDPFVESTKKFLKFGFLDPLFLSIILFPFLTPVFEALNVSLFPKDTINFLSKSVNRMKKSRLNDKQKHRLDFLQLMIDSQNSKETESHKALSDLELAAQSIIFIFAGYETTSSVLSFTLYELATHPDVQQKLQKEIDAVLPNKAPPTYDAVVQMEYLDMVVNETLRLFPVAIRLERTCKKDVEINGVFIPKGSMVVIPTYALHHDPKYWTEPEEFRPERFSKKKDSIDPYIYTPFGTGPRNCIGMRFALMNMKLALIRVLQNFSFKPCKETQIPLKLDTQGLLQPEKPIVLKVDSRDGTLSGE
SLC22A8: Organic anion transporter 3 (SLC22A8, Homo sapiens, UniProt Q8TCC7)
Sequence of UniProt Q8TCC7 (whole entry, looked up): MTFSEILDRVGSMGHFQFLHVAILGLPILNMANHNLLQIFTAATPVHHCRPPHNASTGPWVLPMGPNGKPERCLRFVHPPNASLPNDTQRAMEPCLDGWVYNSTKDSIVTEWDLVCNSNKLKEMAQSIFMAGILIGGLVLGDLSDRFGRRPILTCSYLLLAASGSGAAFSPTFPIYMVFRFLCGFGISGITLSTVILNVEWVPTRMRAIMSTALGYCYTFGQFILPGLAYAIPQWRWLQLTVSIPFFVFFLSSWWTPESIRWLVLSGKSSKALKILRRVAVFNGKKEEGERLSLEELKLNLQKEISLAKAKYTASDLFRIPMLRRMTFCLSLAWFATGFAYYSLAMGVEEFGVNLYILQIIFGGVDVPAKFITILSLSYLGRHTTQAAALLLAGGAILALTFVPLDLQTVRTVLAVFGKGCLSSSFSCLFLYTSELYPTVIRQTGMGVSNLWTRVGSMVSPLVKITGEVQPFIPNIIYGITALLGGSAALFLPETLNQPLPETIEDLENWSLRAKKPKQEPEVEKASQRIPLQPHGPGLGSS
ALB: Albumin (ALB, Homo sapiens, UniProt P02768)
DRD2: D(2) dopamine receptor (DRD2, Homo sapiens, UniProt P14416)
Sequence of UniProt P14416 (whole entry, looked up): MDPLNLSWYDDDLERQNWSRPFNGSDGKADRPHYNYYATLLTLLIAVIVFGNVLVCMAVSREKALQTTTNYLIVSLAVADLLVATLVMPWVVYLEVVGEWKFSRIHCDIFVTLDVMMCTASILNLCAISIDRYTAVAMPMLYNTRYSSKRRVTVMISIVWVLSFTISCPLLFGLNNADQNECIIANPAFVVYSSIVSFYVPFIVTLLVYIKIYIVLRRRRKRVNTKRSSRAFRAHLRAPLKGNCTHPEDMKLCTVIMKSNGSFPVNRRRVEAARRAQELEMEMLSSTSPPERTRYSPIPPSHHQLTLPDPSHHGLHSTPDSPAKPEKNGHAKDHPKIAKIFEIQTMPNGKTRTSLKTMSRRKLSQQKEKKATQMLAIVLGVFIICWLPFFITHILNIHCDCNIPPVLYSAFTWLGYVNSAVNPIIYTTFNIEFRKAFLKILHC
CYP2C19: Cytochrome P450 2C19 (CYP2C19, Homo sapiens, UniProt P33261)
Sequence of UniProt P51575 (whole entry, unmodified, looked up): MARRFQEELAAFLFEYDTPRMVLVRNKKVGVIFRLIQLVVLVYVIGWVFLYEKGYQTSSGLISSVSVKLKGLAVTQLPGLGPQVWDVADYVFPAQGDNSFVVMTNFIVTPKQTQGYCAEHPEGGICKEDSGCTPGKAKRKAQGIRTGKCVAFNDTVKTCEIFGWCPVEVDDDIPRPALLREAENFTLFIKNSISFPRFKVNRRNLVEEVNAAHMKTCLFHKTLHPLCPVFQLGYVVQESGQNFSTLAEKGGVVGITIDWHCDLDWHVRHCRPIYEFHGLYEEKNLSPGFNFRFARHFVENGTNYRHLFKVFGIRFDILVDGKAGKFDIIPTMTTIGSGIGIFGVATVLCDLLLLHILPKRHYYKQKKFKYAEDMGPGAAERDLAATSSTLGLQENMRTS
Sequence of UniProt O95342 (whole entry, looked up): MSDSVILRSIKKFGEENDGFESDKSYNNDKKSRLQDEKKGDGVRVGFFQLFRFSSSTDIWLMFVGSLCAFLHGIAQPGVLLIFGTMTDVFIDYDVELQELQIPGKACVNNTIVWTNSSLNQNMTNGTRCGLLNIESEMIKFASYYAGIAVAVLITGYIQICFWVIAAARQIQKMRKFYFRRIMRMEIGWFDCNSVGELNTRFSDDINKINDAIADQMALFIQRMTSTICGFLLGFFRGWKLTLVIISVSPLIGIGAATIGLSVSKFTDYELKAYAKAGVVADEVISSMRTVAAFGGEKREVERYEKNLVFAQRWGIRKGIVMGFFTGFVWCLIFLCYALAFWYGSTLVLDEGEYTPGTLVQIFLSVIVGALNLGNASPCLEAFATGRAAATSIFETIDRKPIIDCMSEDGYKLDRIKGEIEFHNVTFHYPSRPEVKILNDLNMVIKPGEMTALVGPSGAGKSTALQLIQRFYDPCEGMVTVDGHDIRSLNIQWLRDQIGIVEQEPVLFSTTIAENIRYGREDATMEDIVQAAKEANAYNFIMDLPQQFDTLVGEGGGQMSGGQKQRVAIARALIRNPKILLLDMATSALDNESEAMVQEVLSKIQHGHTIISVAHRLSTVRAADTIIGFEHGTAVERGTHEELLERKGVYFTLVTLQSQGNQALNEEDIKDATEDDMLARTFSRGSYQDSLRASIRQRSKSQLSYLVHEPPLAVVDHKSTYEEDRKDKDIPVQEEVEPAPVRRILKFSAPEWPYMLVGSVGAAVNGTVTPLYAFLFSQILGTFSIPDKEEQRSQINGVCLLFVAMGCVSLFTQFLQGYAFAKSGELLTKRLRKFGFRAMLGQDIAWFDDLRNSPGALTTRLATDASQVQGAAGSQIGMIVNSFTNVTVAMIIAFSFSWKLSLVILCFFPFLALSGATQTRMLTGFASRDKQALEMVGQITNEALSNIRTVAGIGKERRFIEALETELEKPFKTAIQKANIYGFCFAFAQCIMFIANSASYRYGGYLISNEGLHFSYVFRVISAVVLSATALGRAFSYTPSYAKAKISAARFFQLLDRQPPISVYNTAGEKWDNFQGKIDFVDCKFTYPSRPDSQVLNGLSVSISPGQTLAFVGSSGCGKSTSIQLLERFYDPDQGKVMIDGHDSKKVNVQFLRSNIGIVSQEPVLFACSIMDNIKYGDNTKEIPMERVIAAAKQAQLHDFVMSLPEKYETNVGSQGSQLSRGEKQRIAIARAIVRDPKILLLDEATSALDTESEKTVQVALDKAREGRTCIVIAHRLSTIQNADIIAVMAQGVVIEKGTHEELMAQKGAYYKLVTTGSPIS
Sequence of UniProt Q96JM7 (whole entry, looked up): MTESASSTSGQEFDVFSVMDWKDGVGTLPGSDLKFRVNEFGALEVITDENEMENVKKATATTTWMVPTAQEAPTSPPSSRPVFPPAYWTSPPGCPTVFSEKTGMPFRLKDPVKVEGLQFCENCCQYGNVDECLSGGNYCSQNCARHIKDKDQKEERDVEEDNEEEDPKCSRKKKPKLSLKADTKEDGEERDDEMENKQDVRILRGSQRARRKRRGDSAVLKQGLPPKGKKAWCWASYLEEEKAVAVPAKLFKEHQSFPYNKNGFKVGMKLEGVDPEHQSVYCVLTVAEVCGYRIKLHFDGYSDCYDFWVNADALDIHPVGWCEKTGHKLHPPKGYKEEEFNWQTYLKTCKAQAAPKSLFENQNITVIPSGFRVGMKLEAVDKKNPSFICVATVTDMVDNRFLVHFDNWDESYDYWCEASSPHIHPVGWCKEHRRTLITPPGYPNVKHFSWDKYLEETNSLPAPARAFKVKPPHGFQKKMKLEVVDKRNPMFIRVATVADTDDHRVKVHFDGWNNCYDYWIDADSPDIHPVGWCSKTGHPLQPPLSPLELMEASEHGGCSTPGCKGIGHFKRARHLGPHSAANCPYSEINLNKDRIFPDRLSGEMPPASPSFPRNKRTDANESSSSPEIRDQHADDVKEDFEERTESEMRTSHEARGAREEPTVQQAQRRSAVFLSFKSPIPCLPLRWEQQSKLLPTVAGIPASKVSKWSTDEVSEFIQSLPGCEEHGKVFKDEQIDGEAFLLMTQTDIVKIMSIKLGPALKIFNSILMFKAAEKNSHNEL
Sequence of UniProt P18031 (whole entry, looked up): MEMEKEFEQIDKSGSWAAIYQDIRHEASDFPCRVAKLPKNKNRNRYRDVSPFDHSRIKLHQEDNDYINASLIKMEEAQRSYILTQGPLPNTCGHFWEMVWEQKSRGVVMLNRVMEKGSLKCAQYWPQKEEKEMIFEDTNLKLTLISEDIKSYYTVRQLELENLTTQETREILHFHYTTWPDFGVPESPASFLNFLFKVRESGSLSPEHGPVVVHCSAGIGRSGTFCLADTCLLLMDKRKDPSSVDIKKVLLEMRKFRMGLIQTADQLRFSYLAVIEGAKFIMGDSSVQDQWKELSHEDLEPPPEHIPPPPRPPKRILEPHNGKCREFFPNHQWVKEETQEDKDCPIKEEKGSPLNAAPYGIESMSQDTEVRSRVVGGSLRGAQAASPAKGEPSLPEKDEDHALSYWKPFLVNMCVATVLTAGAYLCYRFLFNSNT

SMILES | tested on | assay | system | setting | scale | endpoint | value
CC(C)[C@H](NC(=O)[C@H](Cc1ccc(O)cc1)NC(=O)[C@H](Cc1ccc(O)cc1)NC(=O)[C@@H]1CCCN1C(=O)[C@H](CCC(=O)O)NC(=O)[C@H](CCC(=O)O)NC(=O)[C@H](Cc1c[nH]c2ccccc12)NC(=O)[C@@H]1CCCN1C(=O)[C@@H](NC(=O)[C@H](CCC(N)=O)NC(=O)c1ccc2c(c1)C(=O)OC21c2ccc(O)cc2Oc2cc(O)ccc21)C(C)C)C(=O)N[C@H](C(=O)N[C@@H](CCCCN)C(=O)N[C@@H](CCCCN)C(=O)N[C@@H](CO)C(=O)N[C@@H](CO)C(=O)NCC(=O)NCC(N)=O)C(C)C |  |  | human, plasma | intravenous infusion, 500 mg, 12 h |  | plasma concentration | 18.1 ng/mL
O=C(c1ccc(C(=O)N2CCC(N3CCCC3)CC2)c(Nc2ccccc2)c1)N1CCC(N2CCCC2)CC1 | Lethal(3)malignant brain tumor-like protein 3, MBT domains (Homo sapiens, UniProt Q96JM7) | FRAP | human cells | 1 µM |  | FRAP recovery half-time | 3.6 s
Cn1c(=O)c2c(ncn2C)n(C)c1=O | Cytochrome P450 1A2 (CYP1A2, Homo sapiens, UniProt P05177) |  | human, plasma | oral, 200 mg, day 1, alone, arithmetic mean |  | AUC(0-t) | 32600 ng·h/mL
C[C@@H](Oc1ccc(S(C)(=O)=O)cc1C(=O)N1C[C@@H]2C[C@]2(c2cc(C(F)(F)F)on2)C1)C(F)(F)F | CYP3A5 | recombinant CYP, metabolite formation | phosphate buffer | pH 7.4 |  | CYP contribution | 3.41%
C[C@]12CC[C@@H]3c4ccc(OS(=O)(=O)O)cc4CC[C@H]3[C@@H]1CCC2=O | SLC22A8 | substrate | MDCK-II parental cells |  |  | uptake rate | 0.9 pmol/min/mg protein
CC(C)C[C@H](NC(=O)C[C@H](O)[C@H](CC(C)C)NC(=O)[C@H](Cc1c[nH]cn1)NC(=O)CNC(=O)[C@@H](NC(=O)[C@H](C)NC(=O)[C@H](Cc1c[nH]c2ccccc12)NC(=O)[C@H](CCC(N)=O)NC(=O)[C@@H](Cc1ccccc1)NC(=O)COCCOCCNC(=O)CCC(C(=O)O)N1CCN(CC(=O)O)CCN(CC(=O)O)CC1)C(C)C)C(N)=O (some centres unmarked) [lutetium-177 labelled] |  |  | BALB/c nu/nu mice, female, lumbar lymph node metastases | intravenous, 50 pmol, 24 h |  | tissue uptake | 5 ± 3 %ID/g
COc1cc2nc(N3CCN(C(=O)C4COc5ccccc5O4)CC3)nc(N)c2cc1OC (centres unmarked) | Alpha-1-acid glycoprotein 1, F1/S variants (ORM1, Homo sapiens, UniProt P02763) | binding, ultrafiltration competition |  | 37 °C, added: S-warfarin marker |  | Ki | 47.2 µM
COc1cc(-c2[o+]c3cc(O)cc(O)c3cc2O[C@@H]2O[C@H](CO)[C@@H](O)[C@H](O)[C@H]2O)cc(O)c1O | ALB | binding, fluorescence quenching |  | pH 7, 20 °C, HSA 2 µM |  | Kd | 29.7 ± 0.77 µM
O=c1[nH]c(=O)c(Cc2cccc(C(F)(F)F)c2)c([C@H]2CC[C@H](c3ccccc3)CC2)[nH]1 | ABCB11 (Homo sapiens, UniProt O95342) | transport, inhibitor | inside-out membrane vesicles | added: taurocholic acid |  | IC50 | > 3.5 µM
N#Cc1cc(NC(=O)[C@H]2c3ccccc3C(=O)N(CC(F)(F)F)[C@@H]2c2cccnc2)ccc1F | CYP1A2, 2C9, 2C19, 2D6, 3A4 |  | human liver microsomes | concentration not given |  | inhibition | no inhibition
Nc1ncnc2c1ncn2[C@@H]1O[C@H](COP(=O)(O)CP(=O)(O)OP(=O)(O)O)[C@@H](O)[C@H]1O | P2X purinoceptor 1 (P2RX1, Homo sapiens, UniProt P51575, L218T) | calcium influx |  | 316 nM | relative to: ionomycin response | calcium influx | 97.4% and 97.2% and 94.5%
COC(=O)c1cc(C(C)=NNc2nc(-c3ccc(OC)cc3)cs2)ccc1O | PTPN1 (Homo sapiens, UniProt P18031) | enzyme activity, inhibitor |  | concentration not given |  | duration of inhibition | ~20 min
Cc1cc(C)c(CNC(=O)c2cc(Cl)c3c(c2C)O[C@@](C)([C@H]2CC[C@H](N(C)C)CC2)O3)c(=O)[nH]1 | ALB | ultracentrifugation | 4% human serum albumin solution | 3000 ng/mL, 160 min |  | unbound fraction | 0.65
OC[C@H]1O[C@@H](Oc2cc3c(O)cc(O)cc3[o+]c2-c2ccc(O)cc2)[C@H](O)[C@@H](O)[C@@H]1O | ALB | visible absorption spectroscopy | acetonitrile–HSA system | 50 µM, pH 7, added: HSA 200 µM |  | λmax | < 600 nm
CCS(=O)(=O)N1CC(CC#N)(n2cc(-c3ncnc4[nH]ccc34)cn2)C1 | SLC22A8 | substrate transport, inhibitor | cells expressing human OAT3 | Iu 0.072 µM, added: 3H-estrone sulfate 0.1 µM |  | Iu/IC50 ratio | 0.009
NCCC(O)c1cccc(OC(=O)C2CCCCC2)c1.O=CO (centres unmarked) | porcine liver esterase |  |  | 99 µM, 30 min | relative to: time 0 min | compound remaining | 17%
CC(=O)c1ccc(NS(=O)(=O)c2c(C)[nH]c(C)c2C(=O)N2CCC(F)(F)C2)cc1Cl | DRD2 |  |  |  |  | IC50 | > 100 µM
CC(C)C[C@H](NC(=O)C[C@H](O)[C@H](CC(C)C)NC(=O)[C@H](Cc1c[nH]cn1)NC(=O)CNC(=O)[C@@H](NC(=O)[C@H](C)NC(=O)[C@H](Cc1c[nH]c2ccccc12)NC(=O)[C@H](CCC(N)=O)NC(=O)[C@@H](Cc1ccccc1)NC(=O)COCCOCCNC(=O)CCC(C(=O)O)N1CCN(CC(=O)O)CCN(CC(=O)O)CCN(CC(=O)O)CC1)C(C)C)C(N)=O (some centres unmarked) [lutetium-177 labelled] |  |  | female BALB/c nu/nu mice, spleen | intravenous, 100 pmol, 2 h, added: PA 300 µg |  | tissue uptake | 0.19 ± 0.08 %ID/g
Cc1cc(Nc2ccc(S(F)(F)(F)(F)F)cc2)n2nc(C(C)(F)F)nc2n1 | Plasmodium falciparum | LC-MS/MS | malaria patients, plasma | oral, 250 mg |  | AUC(0-168 h) | 340000 ng·h/mL

SMILES | tested on | assay | system | setting | scale | endpoint | value
CCCC(CCC)C(=O)Oc1cccc(C(O)CCN)c1.O=CO (centres unmarked) | porcine liver esterase |  |  | 99 µM, 60 min | relative to: time 0 min | compound remaining | 74.1%
C[C@@H](O)[C@@H](CO)NC(=O)[C@@H](CCCNC(=N)N)NC(=O)[C@@H]1CCCN1C(=O)[C@@H]1CSSC[C@H](NC(=O)[C@H](Cc2ccccc2)NC(=O)CN2CCN(CC(=O)O)CCN(CC(=O)O)CCN(CC(=O)O)CC2)C(=O)N[C@@H](Cc2ccc(O)cc2)C(=O)N[C@@H](Cc2ccccc2)C(=O)N[C@@H](CCC(N)=O)C(=O)N[C@@H](CC(N)=O)C(=O)N1 [gallium-68 labelled] |  |  | normal saline | 2 h, room temperature |  | radiochemical purity | > 99%
COc1cc(O)c(CC=C(C)C)c2c1C(=O)CC(c1ccc(O)cc1)O2 (centres unmarked) | CYP2E1 (human) | enzyme activity, inhibitor | human liver microsomes | 1 µM, pH 7.4, added: chlorzoxazone |  | inhibition | < 10%
Cn1cc(-c2ccc(-c3cncc(Cl)c3N3CCC4(CCNC4=O)CC3)cc2)cn1 | COLO 205 | gene expression, microarray, refers to: MXI1 mRNA |  | concentration not given, 6 h | relative to: untreated cells | log2 fold change | 1.85
Cc1oc2ccccc2c1Cc1cc(I)c(OCC(=O)O)c(I)c1 | Voltage-gated inwardly rectifying potassium channel KCNH2, Δ2-373 truncation (KCNH2, Homo sapiens, UniProt Q12809) | hERG current, inhibitor, two-electrode voltage clamp | Xenopus oocytes expressing hERG1 Δ2-373 | 50 µM, test potential +30 mV |  | inhibition | 61 ± 6%
C=CC(=O)N(C)CCOc1c(N)ncnc1-c1cc(F)cc(NC(=O)c2ccc(C3CC3)cc2F)c1C | CYP3A5 |  | recombinant human CYP | pH 7.4, scaled to liver microsomes |  | relative unbound intrinsic clearance | 3.8 µL/min/mg
C=CC(=O)N1C[C@H](Nc2ncnc3[nH]ccc23)CC[C@@H]1C | CYP3A | substrate | human, plasma | oral, single dose, added: itraconazole multiple doses |  | Tmax | 48 min
C=CC(=O)Nc1cc(Nc2nccc(-c3cn(C)c4ccccc34)n2)c(OCC(F)(F)F)nc1N(C)CCNC | CYP3A5 | substrate depletion | recombinant human CYP | 1 µM |  | intrinsic clearance | 0.3 µL/min/pmol
Cc1cc(O)cc(C)c1C[C@H](NC(=O)[C@@H]1CCCN1C(=O)[C@H](CCCNC(=N)N)NC(=O)[C@H](CCCNC(=N)N)N(C)C(=O)CNC(=O)[C@@H](CO)NC(=O)CNC(=O)[C@H](Cc1cn(CCNC(=O)[C@H](CC(C)C)NC(=O)[C@H](CC(C)C)NC(=O)C2OC2C(=O)O)nn1)NC(=O)CN1CCN(CC(=O)O)CCN(CC(=O)O)CCN(CC(=O)O)CC1)C(=O)N[C@H](C(=O)N[C@@H](CC(C)C)C(=O)O)C(C)(C)C (mixture of isomers) |  |  | human |  |  | fraction unbound | 0.918
COc1ccc2[nH]c([S+]([O-])Cc3ncc(C)c(OC)c3C)nc2c1 (centres unmarked) | CYP2C19 | refers to: 5-hydroxyomeprazole | human, plasma | oral, 20 mg omeprazole, day 1, cocktail with binimetinib and encorafenib |  | AUC(0-t) | 1020 ng·h/mL
CCC(CC)C(=O)Oc1cccc(C(O)CCN)c1.O=CO (centres unmarked) | porcine liver esterase |  |  | 99 µM, 15 min | relative to: time 0 min | compound remaining | 80%
COc1cc(O)c(CC=C(C)C)c(O)c1C(=O)/C=C/c1ccc(O)cc1 | CYP2E1 (human) | enzyme activity, inhibitor | human liver microsomes | 1 µM, pH 7.4, added: chlorzoxazone |  | inhibition | < 10%
COc1ccc2nc([S+]([O-])Cc3ncc(CO)c(OC)c3C)[nH]c2c1 (centres unmarked) | CYP2C19 | CYP2C19 probe metabolite | human, plasma | oral, 20 mg omeprazole, day -7, probe cocktail alone, geometric mean |  | Cmax | 91.8 ng/mL
CC[C@H]1[C@@H](O)[C@@H]2[C@H](CC[C@]3(C)[C@@H]([C@H](C)CCNC(=O)NS(=O)(=O)c4ccc(C(C)(C)C)cc4)CC[C@@H]23)[C@@]2(C)CC[C@@H](O)C[C@@H]12 | ABCB1 (Homo sapiens, UniProt P08183) |  | human, plasma | geometric mean |  | Tlast | 70.8 h
Cc1[nH]c(C)c(S(=O)(=O)Nc2ccc(B3OC(C)(C)C(C)(C)O3)cc2)c1C(=O)N1CCC(F)(F)C1 | DRD2 |  |  |  |  | IC50 | > 100 µM
NC/C(=C\F)COc1cccc(Cn2c(=S)[nH]c(=O)c3[nH]cnc32)c1 | SLC22A1 (Homo sapiens, UniProt O15245) | transport, inhibitor | CHO cells expressing SLC22A1 | 30 µM, added: ASP+ substrate |  | inhibition | < 50%
N#C[C@H](C[C@@H]1CCCNC1=O)NC(=O)[C@H](CC1CC1)NC(=O)c1cc2cccc(Cl)c2[nH]1 | CYP2C19 | NADPH metabolic stability |  | 2 µM, pH 7.4, 100 pmol/mL enzyme |  | intrinsic clearance | 0.66 µL/min/pmol
CCc1cc(/C(C)=N/OCc2ccc(C3CCCCC3)c(C(F)(F)F)c2)ccc1CN1CC(C(=O)O)C1 | SLC22A8 | transport, inhibitor | HEK293 transfected with SLC22A8 | up to 24.3 µM, 5 min, added: estrone-3-sulfate 1 µM |  | maximal inhibition | 5.6%
Cc1cc(O)cc(C)c1C[C@H](NC(=O)[C@@H]1CCCN1C(=O)[C@H](CCCNC(=N)N)NC(=O)[C@H](CCCNC(=N)N)N(C)C(=O)CNC(=O)[C@@H](CO)NC(=O)CNC(=O)[C@H](Cc1cn(CCNC(=O)[C@H](Cc2ccc(O)cc2)NC(=O)[C@H](CC(C)C)NC(=O)C2OC2C(=O)O)nn1)NC(=O)CN1CCN(CC(=O)O)CCN(CC(=O)O)CCN(CC(=O)O)CC1)C(=O)N[C@H](C(=O)N[C@@H](CC(C)C)C(=O)O)C(C)(C)C (mixture of isomers) |  |  | human |  |  | fraction unbound | 0.884

Repeated from above:
SMILES | tested on | assay | system | setting | scale | endpoint | value
C=CC(=O)Nc1cc(Nc2nccc(-c3cn(C)c4ccccc34)n2)c(OCC(F)(F)F)nc1N(C)CCNC | CYP3A5 | substrate depletion | recombinant human CYP | 1 µM |  | intrinsic clearance | 0.3 µL/min/pmol
Cc1cc(O)cc(C)c1C[C@H](NC(=O)[C@@H]1CCCN1C(=O)[C@H](CCCNC(=N)N)NC(=O)[C@H](CCCNC(=N)N)N(C)C(=O)CNC(=O)[C@@H](CO)NC(=O)CNC(=O)[C@H](Cc1cn(CCNC(=O)[C@H](CC(C)C)NC(=O)[C@H](CC(C)C)NC(=O)C2OC2C(=O)O)nn1)NC(=O)CN1CCN(CC(=O)O)CCN(CC(=O)O)CCN(CC(=O)O)CC1)C(=O)N[C@H](C(=O)N[C@@H](CC(C)C)C(=O)O)C(C)(C)C (mixture of isomers) |  |  | human |  |  | fraction unbound | 0.918
